Results gathered from unrelated publications.
Each line is one published result; not all experiments were run side by side. Numbers after ± are the reported error.

With CN(C(=O)n1cnc(-c2ccc[n+]([O-])c2)c1)C1CCCCC1 the concentration was 106 ± 37.4 ng/g (Wistar rat, pons; oral, 10 mg/kg/day, 4 h, repeated 5 days).
Under “concentration at steady state”, CC[C@H](C)CCCCC(=O)N[C@@H](CCN)C(=O)N[C@H](C(=O)N[C@@H](CCN)C(=O)N[C@H]1CCNC(=O)[C@H]([C@@H](C)O)NC(=O)[C@H](CCN)NC(=O)[C@H](CCN)NC(=O)[C@H](CC(C)C)NC(=O)[C@@H](Cc2ccccc2)NC(=O)[C@H](CCN)NC1=O)[C@@H](C)O is recorded as 2700 ng/mL (critically ill patients, plasma; intravenous, 2.1 mg/kg/day, 6 h after fifth infusion start, median).
CCc1ccc(CC/C=C/c2ccc3c(c2)C(=O)CC3)cc1 has a total bilirubin of 1.47 µM (Sprague-Dawley rat, female, serum; oral, 120 mg/kg/day, 14 days).
Cn1c(-c2ccc(C(N)=O)cc2F)nnc1C(C)(C)Oc1c(F)cc(Cl)cc1F: “musculoskeletal disorder TEAE” 0% (human; oral, 10 mg, single ascending dose).
C[C@H]1CN(C(=O)CC#N)[C@]12CCN(c1ncnc3[nH]ccc13)C2 — result for “AUC at NOAEL”: 1540 ng·h/mL (dog, male; oral, 0.6 mg/kg repeated, 9 months).
For C[C@]1(CO)Cc2ncn(-c3ccc(C#N)c(Cl)c3)c2C(=O)O1, the half-life was 4.9 h (healthy Japanese adults, plasma; 3 mg single dose).
For O=C(Nc1ccccc1)C1CCN(C(=O)Oc2cccnc2)CC1, “Vascular disorders adverse events” read 14.3% (healthy women; oral, 60 mg, 7 days).
COc1cc2c(Oc3ccc4[nH]c(C)cc4c3F)ccnc2cc1OCC1(N)CC1 — result for “grade 3 sinus bradycardia”: 0% (paediatric recurrent refractory sarcoma; concentration not given, whole group).
C=CC(=O)Nc1cc(Nc2nccc(Nc3cc(Cl)c(F)cc3C(C)(C)O)n2)c(OC)cc1N1CC[C@@H](N(C)C)C1: “decreased appetite TEAE” 31.4% (human; oral, dose not given).
O=C1Nc2cc3[nH]nc(-c4ccncc4)c3cc2CN1Cc1ccccc1 — result for “patients with abdominal pain”: 0% (CTCAE v4.03; advanced solid tumour patients; intravenous, 1.8 mg/kg, schedules 1/2).
CC1(C)C(=O)N(c2ccc(C#N)c(C(F)(F)F)c2)C(=S)N1c1ccc(C(N)=O)c(F)c1 gave an intercompartmental clearance of 9.44 L/h (population PK final model; human).
The related SAE of CNC(=O)c1cc(Oc2ccc(NC(=O)Nc3cc(C(C)(C)C)nn3-c3ccc4ncccc4c3)c(F)c2)ccn1 is reported as 25% (NCI CTC v3.0; human patients; oral, 300 mg twice daily, dose at onset).
C[C@@H](NC(=O)N1C(=O)[C@H](Cc2ccnc(N)c2)[C@H]1C(=O)O)C1CCCCC1: “incidence of elevated creatine phosphokinase” 0% (healthy adult Chinese volunteers; continuous intravenous infusion, 1.5 mg/kg/h, 5-day infusion, CTCAE 5.0 grading).
CCN(CCO)CCCC(C)Nc1ccnc2cc(Cl)ccc12 (centres unmarked) — result for “patients with adverse event”: 33% (item: Fatigue grade 1; newly diagnosed glioblastoma patients; oral, 400 mg/dose, with radiotherapy and temozolomide).

For quick reference, copied from above:
For O=C(Nc1ccccc1)C1CCN(C(=O)Oc2cccnc2)CC1, “Vascular disorders adverse events” read 14.3% (healthy women; oral, 60 mg, 7 days).
